Results gathered from unrelated publications.
Numbered parts are unrelated; each lists some results of a single study. Substitutions count along the parent as printed.

Set 1
Target: Hepatocyte nuclear factor 3-alpha (Foxa1, Mus musculus, UniProt P35582, residues 1-468, full length assumed)
Sequence of UniProt P35582 (whole entry, looked up): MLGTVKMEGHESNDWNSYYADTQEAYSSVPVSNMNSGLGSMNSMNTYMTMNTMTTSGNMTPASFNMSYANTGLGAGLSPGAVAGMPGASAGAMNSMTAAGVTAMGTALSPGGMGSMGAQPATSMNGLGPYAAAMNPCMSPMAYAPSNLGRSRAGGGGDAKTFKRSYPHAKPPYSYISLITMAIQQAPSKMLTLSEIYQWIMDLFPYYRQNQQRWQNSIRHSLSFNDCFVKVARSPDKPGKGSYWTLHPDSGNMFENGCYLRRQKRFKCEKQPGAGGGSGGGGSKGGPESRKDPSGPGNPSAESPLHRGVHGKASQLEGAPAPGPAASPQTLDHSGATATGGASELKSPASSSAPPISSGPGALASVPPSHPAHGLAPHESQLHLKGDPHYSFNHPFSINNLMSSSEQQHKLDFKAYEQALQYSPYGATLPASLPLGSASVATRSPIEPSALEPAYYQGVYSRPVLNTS
Technique: EMSA with sequencing
Form: double-stranded DNA, one strand shown
Matrix: in vitro
Concentration: 10 and 20 nM
Setting: whole designed probe, mean of two concentrations, ends assumed
Reference: negative control set to 0
Reading: higher = stronger binding
Oligonucleotide	normalised bound fraction
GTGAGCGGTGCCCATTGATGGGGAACTTATTTTAATGCATGCATTAATTCTCCTTTTCATCTCACTGCCTGCCAGAAAATTGGTTGTACAAGCGTTCAAGGCATTTTCCCTGGACCAGAAAATTACACAGGAGTACTGAGATGACATTATGTGGCTTCGGATTTCAGCGGGCAGGCTGATGCCTCTTGGGACATGTAAGTGCAGAAGGCAAGGCCTGCCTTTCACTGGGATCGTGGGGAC	-0.0471 ratio
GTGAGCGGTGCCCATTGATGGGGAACCCCTCATCCTGGGTGTCGGGGTGGGAGGTGTTCTCATCATGAATGGGAGGCGTACCCAGATCCAGCTCTGCCTTTTTTTAACCAAACCAGAGTGTAATCTAATGGCTGTGTGACTCACCATAATCGACATAGCAAGATATGATACATGCCAGGAGAGAAAAAGAAAGTGCTGATGGAAAAATAATCTCATTAGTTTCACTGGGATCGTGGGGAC	0.038 ratio
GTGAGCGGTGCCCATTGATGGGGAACTCCACTGGGATAAATTTATTTCATAAATGTCATTTTCTAAAGATAACTTCTTGGTCTCATACTTGGTCTCCAAATCTAAAATAAAACAAGAAAGCAATCTCATGCTGTTTTCTTTTACTAAAAGAAGCAACATTTCTAATGTAGAAATAAAAGACAACAAAAGTAATCCTTAACCAAAACTCTAAAATATTGTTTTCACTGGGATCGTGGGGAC	0.0302 ratio
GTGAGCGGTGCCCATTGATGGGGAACATCTTCCCCCTCTTCCTTGCCCCACCAGCTCACCTACGGGGGTTATTTGCACAAAGGAAAATAAATAAAGCCGGCATTCGTTAACCCTCTTCTGGCGCAAACTGCTGTTTGCTCTGGATCTAACATGGTCCTTTGGCGACGCCAGGCTCCGGGAGAGCAAAGCACCGTGTCAGGGCCATGATCCGGGCTCGCCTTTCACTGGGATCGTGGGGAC	0.381 ratio
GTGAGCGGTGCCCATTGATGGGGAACATTAGGCAGATATAGGGACCTGAGACTTAGGTGGTTATTTTCTTCATCTCATCGGTGGGGACCTGGCTTCTTTGACTGCACCTTGATGTGCTTGTTTACACTGTTAGTATTTCCCCTTGTGGATACTGTAGGCTTATTTTACAGCCAGAGTGAGTAGGGGCAGGCTATCTGGCCAGTCGCCACCTCAGATTATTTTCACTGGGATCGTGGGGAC	0.33 ratio
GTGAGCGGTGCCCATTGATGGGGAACTAAAAGTGTCAATTCTCAGGCATTTATAATGTATAGAATAATATATCAGGGAGAGGTAATTTTGGTGAATACATCAGTAAGTTTAGATTCCGTGTTTACTTTGTAGATTGCTCGTGTTTAAAGATGTATAGTTGTATAAAGTAATAGACATTTTCATTTGAATTTTAGAATATAATTGCATTACTACTTATTATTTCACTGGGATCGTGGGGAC	0.416 ratio
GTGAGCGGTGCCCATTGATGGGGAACGAGGGGACGCCCTGGAGCTCAGGTGCTCAAGGGCGTGCGCGGGGCTCGGCCGCCGGTGTCCCTGGAGATGCTTCTCTGGTCTGGTGTGACACGTGTGTACACAGTCCCCGCCCTCTCGTGAGCGCCCGGGTGCGTGTGCTCCCTCCCGACCACCCTGAGGAGCGAGGGTGCTGGTCCCCGAGAGGGCGGCGAGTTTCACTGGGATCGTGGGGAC	0.152 ratio
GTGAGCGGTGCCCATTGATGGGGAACGGAATCTCCGGATGCTCTGCATTCTTAGCATTCTAACAACTTCTTATTTTTCCCTTGCAGAGTTGCCCAAATAGGGACACATCTAGACTTGTTGTTTACATAGCTCTGGGCCGGCTGACTGGCAAACCCCGGATGGAGGGTGCAGACAATTGGCACAGGGCAGAAGGGGTCAGGCCACCGGCAGGAGTGCAGGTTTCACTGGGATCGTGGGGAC	0.464 ratio

Set 2
Target: CCND1, cyclin fold, Cln2 fusion (human)
Technique: yeast growth competition, sequencing
Matrix: yeast
Setting: weak parent motif
Reference: not given
Reading: higher = stronger binding
Starting sequence: SLBP docking peptide (human); ARYKRKLLINDFG
Substitution	normalised enrichment score
ARYKRKLLINDSG [F12S]	-0.487
ARYKRKLLINTFG [D11T]	0.482
ARYKRKLLINDWG [F12W]	-0.44
ARFKRKLLINDFG [Y3F]	0.132
ARYKMKLLINDFG [R5M]	0.332
ARYKNKLLINDFG [R5N]	-0.0824
ARYKRKLMINDFG [L8M]	0.426
ARYKRKLLIDDFG [N10D]	0.152
ARYKRKDLINDFG [L7D]	-0.367
ARYKRKLLIQDFG [N10Q]	-0.0298
ARHKRKLLINDFG [Y3H]	0.0627

Set 3
Target: Phosphate system positive regulatory protein PHO4, full length, GST-tagged (PHO4, Saccharomyces cerevisiae, UniProt P07270, residues 1-312)
Technique: competition protein-binding microarray
Form: double-stranded DNA, one strand shown
Matrix: in vitro
Concentration: 2 µM
Setting: whole 60-bp probe, lowest competitor level
Together with: Cbf1 competitor, 0.05 µM
Reading: higher = stronger binding
Target sequence (chain): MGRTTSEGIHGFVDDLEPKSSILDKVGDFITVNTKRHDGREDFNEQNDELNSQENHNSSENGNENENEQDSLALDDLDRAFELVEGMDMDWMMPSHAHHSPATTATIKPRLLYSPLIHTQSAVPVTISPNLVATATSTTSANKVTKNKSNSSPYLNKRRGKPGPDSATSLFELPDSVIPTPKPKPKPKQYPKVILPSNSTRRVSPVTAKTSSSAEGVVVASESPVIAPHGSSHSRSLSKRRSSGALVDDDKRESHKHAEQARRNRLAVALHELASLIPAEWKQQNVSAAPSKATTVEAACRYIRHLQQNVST
Oligonucleotide	fluorescence intensity
TCCACCTCAAACGGCCACGCTCTGCTTTTTTTCTATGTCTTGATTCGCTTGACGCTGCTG	8460 a.u.
CATACCCAACCTTGAATCGTGGGTGAAGATATTTGTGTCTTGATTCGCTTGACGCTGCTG	7430 a.u.
GGACATAAATGCTCGCGCATGACAGAGACTGGCCGGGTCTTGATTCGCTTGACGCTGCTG	5820 a.u.
GCCGAGGGTAACTTCCACGGGAGAACCTTCGGTGCTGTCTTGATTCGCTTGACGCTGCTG	3380 a.u.
CTTTCCCGATCTTGGTTTGTGGGTGTAGCACATTTGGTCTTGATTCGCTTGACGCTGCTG	4840 a.u.
TTACCATGCCAATCAAACGTGCAAAAAAGATGAGTAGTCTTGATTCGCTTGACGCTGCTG	9670 a.u.
GTAAGAACTCAGCTTCCCGTGAGGATGGTTCTAATGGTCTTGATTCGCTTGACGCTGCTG	4290 a.u.
TGCGCAACAACTTGCCCGGTGGGTGTATGTCTAGAAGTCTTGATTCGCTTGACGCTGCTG	4870 a.u.
CGTCCTAGTGATTGCGACGTGGGTGCCATGAGGAAGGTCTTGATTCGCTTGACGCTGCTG	8500 a.u.
CATACCCAACCTTGTCACAAAACTTAAGATATTTGTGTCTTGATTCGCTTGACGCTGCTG	3200 a.u.
TGCGCAACAACTTGGCTCGTGGGTGTATGTCTAGAAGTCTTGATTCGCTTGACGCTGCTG	10100 a.u.
CAATACTCTTTGTCCCACGATGCAACTTTGAAAGGTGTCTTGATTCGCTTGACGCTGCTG	11300 a.u.
TCTTAATTAAAGTTTCACGGGCAATTCTAACCTTTTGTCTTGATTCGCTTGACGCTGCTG	3170 a.u.
CAACGTATAGACCATCACGTGGTGAGTTTGAAGGGAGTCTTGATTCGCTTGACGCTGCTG	16700 a.u.
GTCTTGTCTCATTGCGCCGTGGGTGTCCCCACTTCAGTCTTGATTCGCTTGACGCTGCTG	6040 a.u.
AATATTGGCCTTTTGCACGTTCGCGACTAAACGAGTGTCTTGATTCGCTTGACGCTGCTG	12400 a.u.
CAACACAAAGTTCGTCACGTCATTTAGCTGATAACGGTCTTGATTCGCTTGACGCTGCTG	4380 a.u.
ATCATGGATGCCCTTTCCGTGATGGGAGTAACGAGAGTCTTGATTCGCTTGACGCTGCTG	3960 a.u.

Set 4
Target: ABI1, truncated, D143A, DHFR fusion (Arabidopsis thaliana)
Technique: DHFR PCA, deep sequencing
Matrix: yeast
Setting: methotrexate growth selection, single substitutions
Together with: (+)-ABA 0.0091 µM
Reference: wild-type fitted maximum
Reading: higher = stronger binding
Starting sequence: PYL1, truncated, DHFR fusion (Arabidopsis thaliana); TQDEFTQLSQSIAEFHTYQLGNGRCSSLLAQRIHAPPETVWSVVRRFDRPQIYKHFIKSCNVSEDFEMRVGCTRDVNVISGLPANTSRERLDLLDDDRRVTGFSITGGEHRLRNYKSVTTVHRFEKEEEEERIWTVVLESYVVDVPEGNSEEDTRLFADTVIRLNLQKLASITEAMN
Substitution	relative binding score
T154W	-5.6%
V62G	-5.58%
S140G	2.69%
E139K	10.6%
E131F	13%
E38W	2.78%
T73E	26.4%
V145D	-1.99%
H16V	2.25%
V100Q	0.501%
E151N	7.19%
T135R	-4.67%
S27F	1.08%
R123A	55.2%

Set 5
Target: Histone acetyltransferase KAT6A, both winged helices, GST fusion (KAT6A, Homo sapiens, UniProt Q92794, residues 1-181)
Technique: protein binding microarray
Form: double-stranded DNA, one strand shown
Matrix: in vitro
Concentration: not given
Setting: 8-mer, flanks averaged, mean of 2 arrays, mostly near background
Reference: not given
Reading: higher = stronger binding
Target sequence (chain): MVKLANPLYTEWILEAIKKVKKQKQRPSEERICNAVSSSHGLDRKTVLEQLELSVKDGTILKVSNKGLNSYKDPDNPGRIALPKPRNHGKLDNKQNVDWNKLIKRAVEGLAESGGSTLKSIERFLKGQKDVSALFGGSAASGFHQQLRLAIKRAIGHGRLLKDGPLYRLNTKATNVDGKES
Oligonucleotide	E-score
AGTCCAAC	-0.189
CGGTGTCC	0.215
ACACATGA	-0.156
ATATCTTA	-0.106
ACGGTACC	0.142
AGCGTATA	0.1
GGGATTTA	0.107
TATCCCAA	-0.0758
GTGTAAAC	-0.0172
ATCTTGAG	-0.18
GGACTCCA	-0.0103
ATAACCCA	-0.168
TACACTAA	-0.0938
AAGGCTGT	-0.11
GCGTGCCC	0.0734
ATGATCCC	-0.0763
CCATGAGA	-0.0394
AACTTTAG	-0.00724
ACCTGAGC	0.0348
CTCGCCAA	-0.003
TGGGGGAA	-0.176
GTTATTCA	-0.00987
GCTTCAGA	-0.0926
CACAAGGA	-0.0893
CCAACCTC	-0.0799

Set 6
Target: Interferon regulatory factor 3, full length, phosphomimetic (IRF3, Homo sapiens, UniProt Q14653, residues 1-427, S386D/S396D/S398D/S402D/T404D/S405D)
Technique: protein-binding microarray
Form: double-stranded DNA, one strand shown
Matrix: in vitro
Concentration: 2540 nM top
Setting: 60-bp whole probe
Together with: salmon DNA 0.4 mg/ml
Reference: random background probes
Reading: higher = stronger binding
All sequences stand within: GCCTAGCAC … GTCTTGATTCGCTTGACGCTGCTG
Construct (chain): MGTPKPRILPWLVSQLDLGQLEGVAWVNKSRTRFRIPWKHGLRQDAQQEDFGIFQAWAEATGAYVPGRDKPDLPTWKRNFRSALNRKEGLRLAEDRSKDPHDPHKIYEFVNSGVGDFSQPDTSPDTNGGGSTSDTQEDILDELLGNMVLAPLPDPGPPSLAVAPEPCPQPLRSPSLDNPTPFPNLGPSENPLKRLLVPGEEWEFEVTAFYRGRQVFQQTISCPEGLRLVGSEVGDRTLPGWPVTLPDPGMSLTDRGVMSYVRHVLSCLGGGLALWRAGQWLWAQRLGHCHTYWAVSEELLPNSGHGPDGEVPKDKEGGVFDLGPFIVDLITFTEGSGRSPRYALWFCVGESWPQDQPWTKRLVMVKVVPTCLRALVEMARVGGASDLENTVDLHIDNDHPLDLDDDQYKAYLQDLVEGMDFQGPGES
Oligonucleotide	fitted relative affinity
TTAGAACTCAGTTTCGATTAGTGCTAG	3.55 z-score
GACGATATCGGGTATCAAGACGTGCTA	0.205 z-score
TTTCATATATATATGAATATGTGCTAG	3.12 z-score
CAGCCGCACAGCATGAGTTCGTGCTAG	-0.827 z-score
TTTGATCTCAGACTGGATTAGTGCTAG	0.0566 z-score
TGAGGTTCCGGTTTCGGTTAGTGCTAG	6.97 z-score
GACGGTCTCCTTATCCGGACGTGCTAG	3.2 z-score
GTTGCTCTCTCACCACCTTCGTGCTAG	1.66 z-score
TGAGGACTGGGTCTCGGTTAGTGCTAG	-1.1 z-score
TTTTTTTTTTTTTTGGAATGGTGCTAG	1.62 z-score
GGCGGTATCCTACTGCTGACGTGCTAG	2.87 z-score
GACGGTATCGGTCTCGGTACGTGCTAG	4.85 z-score

Some of these lines once more (set 5):
Oligonucleotide	E-score
GTGTAAAC	-0.0172
ATCTTGAG	-0.18
GGACTCCA	-0.0103
ATAACCCA	-0.168
